# Measurements gathered from unrelated publications.
# Numbered parts are unrelated; each lists some results of a single study.
# Chain of UniProt Q15569 (whole entry, looked up): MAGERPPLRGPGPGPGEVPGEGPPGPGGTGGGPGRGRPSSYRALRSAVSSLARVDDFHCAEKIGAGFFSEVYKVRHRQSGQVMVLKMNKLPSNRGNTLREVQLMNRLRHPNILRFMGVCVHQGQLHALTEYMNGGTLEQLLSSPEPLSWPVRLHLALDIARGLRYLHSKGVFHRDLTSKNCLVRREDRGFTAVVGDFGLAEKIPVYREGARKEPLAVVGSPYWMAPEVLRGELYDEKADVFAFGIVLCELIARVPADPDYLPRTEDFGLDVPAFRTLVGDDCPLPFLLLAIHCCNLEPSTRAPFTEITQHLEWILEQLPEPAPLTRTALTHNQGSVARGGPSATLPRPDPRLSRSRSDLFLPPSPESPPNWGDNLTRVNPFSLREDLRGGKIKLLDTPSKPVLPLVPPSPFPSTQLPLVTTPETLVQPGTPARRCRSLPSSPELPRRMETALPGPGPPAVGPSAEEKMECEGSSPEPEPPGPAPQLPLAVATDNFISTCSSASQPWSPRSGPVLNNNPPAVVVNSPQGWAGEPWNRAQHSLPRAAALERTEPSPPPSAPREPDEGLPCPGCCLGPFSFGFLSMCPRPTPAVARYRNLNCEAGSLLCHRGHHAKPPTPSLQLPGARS
# Chain of UniProt Q16288 (whole entry, looked up): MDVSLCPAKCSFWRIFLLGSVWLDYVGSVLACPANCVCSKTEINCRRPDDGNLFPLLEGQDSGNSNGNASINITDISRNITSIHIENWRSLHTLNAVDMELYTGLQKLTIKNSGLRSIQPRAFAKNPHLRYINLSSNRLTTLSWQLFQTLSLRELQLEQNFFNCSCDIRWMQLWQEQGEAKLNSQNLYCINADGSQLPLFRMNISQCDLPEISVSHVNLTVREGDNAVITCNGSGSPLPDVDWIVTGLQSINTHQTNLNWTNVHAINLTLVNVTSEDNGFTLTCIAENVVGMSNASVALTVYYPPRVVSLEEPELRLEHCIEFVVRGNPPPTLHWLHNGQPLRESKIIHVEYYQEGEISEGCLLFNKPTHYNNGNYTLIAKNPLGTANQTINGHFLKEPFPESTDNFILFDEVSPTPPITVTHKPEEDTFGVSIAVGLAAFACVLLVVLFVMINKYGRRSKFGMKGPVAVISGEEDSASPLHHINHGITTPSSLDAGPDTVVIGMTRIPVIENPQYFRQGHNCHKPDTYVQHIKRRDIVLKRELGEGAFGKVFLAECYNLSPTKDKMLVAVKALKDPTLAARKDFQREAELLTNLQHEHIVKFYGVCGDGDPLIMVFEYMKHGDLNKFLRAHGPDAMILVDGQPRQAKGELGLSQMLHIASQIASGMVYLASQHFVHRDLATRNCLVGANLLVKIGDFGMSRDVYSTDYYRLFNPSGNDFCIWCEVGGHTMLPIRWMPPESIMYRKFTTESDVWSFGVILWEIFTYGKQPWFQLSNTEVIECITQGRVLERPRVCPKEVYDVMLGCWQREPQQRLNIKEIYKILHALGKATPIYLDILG
# Chain of UniProt Q8NI60 (whole entry, looked up): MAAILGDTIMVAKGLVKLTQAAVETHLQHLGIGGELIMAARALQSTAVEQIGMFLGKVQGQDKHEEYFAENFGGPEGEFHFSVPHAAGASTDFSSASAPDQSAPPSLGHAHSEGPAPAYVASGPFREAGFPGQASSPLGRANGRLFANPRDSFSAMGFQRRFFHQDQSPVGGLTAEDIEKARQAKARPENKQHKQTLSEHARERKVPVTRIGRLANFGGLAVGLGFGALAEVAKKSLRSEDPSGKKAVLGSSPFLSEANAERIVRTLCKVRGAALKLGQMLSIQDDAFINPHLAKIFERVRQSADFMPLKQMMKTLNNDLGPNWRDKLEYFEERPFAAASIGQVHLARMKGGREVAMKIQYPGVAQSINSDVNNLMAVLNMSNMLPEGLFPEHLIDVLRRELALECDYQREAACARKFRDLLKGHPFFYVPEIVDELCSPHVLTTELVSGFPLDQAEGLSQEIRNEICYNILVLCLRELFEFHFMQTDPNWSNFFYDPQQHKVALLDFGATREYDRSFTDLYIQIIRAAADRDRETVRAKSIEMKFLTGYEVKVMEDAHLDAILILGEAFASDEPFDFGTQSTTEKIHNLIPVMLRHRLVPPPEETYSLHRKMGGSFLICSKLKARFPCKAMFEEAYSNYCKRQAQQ
# Chain of UniProt Q07002 (whole entry, looked up): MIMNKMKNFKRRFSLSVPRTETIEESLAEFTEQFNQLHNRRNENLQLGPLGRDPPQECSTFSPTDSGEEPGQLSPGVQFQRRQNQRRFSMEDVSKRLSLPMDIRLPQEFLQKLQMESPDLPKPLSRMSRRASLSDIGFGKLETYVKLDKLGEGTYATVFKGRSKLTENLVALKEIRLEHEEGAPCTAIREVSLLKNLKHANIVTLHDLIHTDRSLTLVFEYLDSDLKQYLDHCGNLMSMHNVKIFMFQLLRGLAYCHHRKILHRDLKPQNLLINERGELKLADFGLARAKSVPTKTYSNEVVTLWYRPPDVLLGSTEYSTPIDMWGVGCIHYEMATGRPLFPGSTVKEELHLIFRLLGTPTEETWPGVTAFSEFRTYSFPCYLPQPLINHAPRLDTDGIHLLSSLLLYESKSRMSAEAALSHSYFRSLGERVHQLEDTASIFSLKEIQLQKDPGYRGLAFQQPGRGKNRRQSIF
# Chain of UniProt Q8TBX8 (whole entry, looked up): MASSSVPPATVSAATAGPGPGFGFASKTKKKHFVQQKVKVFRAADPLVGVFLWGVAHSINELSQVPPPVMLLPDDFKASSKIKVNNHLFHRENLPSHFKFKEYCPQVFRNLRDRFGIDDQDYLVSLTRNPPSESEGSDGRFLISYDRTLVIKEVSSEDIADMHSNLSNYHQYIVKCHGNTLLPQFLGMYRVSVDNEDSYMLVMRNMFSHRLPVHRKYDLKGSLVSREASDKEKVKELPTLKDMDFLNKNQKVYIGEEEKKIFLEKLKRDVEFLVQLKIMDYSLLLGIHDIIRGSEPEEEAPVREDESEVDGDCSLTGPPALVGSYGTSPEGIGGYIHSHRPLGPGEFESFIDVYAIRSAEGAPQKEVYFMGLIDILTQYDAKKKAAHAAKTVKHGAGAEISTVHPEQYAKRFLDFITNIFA
# Chain of UniProt P51955 (whole entry, looked up): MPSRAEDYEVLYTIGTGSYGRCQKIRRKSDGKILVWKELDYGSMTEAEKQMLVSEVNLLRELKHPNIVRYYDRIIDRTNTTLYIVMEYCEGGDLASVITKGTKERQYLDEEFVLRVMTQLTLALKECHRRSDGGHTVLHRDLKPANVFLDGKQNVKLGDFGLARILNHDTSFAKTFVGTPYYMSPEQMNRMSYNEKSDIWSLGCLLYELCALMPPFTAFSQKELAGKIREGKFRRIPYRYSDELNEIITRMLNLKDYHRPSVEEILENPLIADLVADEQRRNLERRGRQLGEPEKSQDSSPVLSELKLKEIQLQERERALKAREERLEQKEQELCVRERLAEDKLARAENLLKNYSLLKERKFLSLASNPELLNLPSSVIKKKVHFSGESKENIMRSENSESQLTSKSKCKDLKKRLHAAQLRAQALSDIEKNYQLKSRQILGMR
# Chain of UniProt Q8IVW4 (whole entry, looked up): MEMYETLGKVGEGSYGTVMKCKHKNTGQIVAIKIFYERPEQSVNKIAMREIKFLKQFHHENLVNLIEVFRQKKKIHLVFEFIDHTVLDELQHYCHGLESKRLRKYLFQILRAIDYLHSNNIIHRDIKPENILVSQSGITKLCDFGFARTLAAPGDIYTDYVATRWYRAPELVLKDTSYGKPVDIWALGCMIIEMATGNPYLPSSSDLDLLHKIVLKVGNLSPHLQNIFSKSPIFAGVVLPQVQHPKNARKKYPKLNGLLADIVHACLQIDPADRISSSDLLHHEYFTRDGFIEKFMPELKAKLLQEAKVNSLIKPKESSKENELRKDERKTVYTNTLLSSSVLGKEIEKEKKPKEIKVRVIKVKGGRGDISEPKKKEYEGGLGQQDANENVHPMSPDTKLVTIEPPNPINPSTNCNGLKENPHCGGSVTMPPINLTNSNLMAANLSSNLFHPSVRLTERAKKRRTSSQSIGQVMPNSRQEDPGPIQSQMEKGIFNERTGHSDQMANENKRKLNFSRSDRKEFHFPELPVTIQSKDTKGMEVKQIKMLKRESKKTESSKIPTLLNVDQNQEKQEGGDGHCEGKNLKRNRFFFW

# Set 1 — effect on: cell-free assay; method: competition with immobilised ligand; tested at: 1 µM
# Structure (SMILES): COc1ccc2cc(OCC3(C(=O)O)CN(C(=O)c4ccc(F)cc4)C3)ccc2c1
target,remaining binding [%]
"Mitogen-activated protein kinase 1 (MAPK1, Homo sapiens, UniProt P28482)",97
"Mast/stem cell growth factor receptor Kit (KIT, Homo sapiens, UniProt P10721, V559D)",100
"NT-3 growth factor receptor (NTRK3, Homo sapiens, UniProt Q16288)",98
"Cyclin-dependent kinase-like 3 (CDKL3, Homo sapiens, UniProt Q8IVW4)",89
"Homeodomain-interacting protein kinase 4 (HIPK4, Homo sapiens, UniProt Q8NE63)",100
"Dual specificity testis-specific protein kinase 1 (TESK1, Homo sapiens, UniProt Q15569)",98
"Cyclin-dependent kinase 18 (CDK18, Homo sapiens, UniProt Q07002)",98
"Phosphatidylinositol 5-phosphate 4-kinase type-2 gamma (PIP4K2C, Homo sapiens, UniProt Q8TBX8)",100
"Serine/threonine-protein kinase Nek2 (NEK2, Homo sapiens, UniProt P51955)",100
"Atypical kinase COQ8A, mitochondrial (COQ8A, Homo sapiens, UniProt Q8NI60)",100

# Set 2 — method: universal PBM; form: double-stranded DNA, one strand shown; sample: in vitro; tested at: not given; direction: higher = stronger binding
# Target: Sal-like protein 4, full length isoform B (SALL4, Homo sapiens, UniProt Q9UJQ4-2, residues 1-616)
# Notes: 8-mer, flanks averaged, mean of replicates
# Target sequence (chain): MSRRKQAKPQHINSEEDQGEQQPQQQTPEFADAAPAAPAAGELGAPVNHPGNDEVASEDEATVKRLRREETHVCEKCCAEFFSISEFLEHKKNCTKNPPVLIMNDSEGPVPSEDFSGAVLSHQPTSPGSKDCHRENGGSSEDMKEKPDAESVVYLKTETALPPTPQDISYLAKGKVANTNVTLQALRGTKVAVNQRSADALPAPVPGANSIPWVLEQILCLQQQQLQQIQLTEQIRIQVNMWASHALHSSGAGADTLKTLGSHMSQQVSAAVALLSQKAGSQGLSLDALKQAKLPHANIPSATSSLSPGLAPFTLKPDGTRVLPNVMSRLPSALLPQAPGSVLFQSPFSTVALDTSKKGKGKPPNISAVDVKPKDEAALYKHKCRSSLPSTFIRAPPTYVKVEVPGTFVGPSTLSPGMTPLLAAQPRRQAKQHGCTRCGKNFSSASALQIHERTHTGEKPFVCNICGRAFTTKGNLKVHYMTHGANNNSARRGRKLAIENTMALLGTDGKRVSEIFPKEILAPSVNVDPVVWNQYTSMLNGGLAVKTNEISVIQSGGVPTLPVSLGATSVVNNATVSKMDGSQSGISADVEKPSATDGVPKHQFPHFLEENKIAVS
Strand,E-score
ATCCGACA,-0.0155
GCTCCTAC,-0.0714
AGTTCCTA,0.0935
ATTCAGGC,-0.0466
AAGATGAG,-0.0566
AGAGAAGG,-0.142
GATACAGC,0.156
GCTGCTAC,-0.236

# Set 3 — method: aptamer microarray, sandwich; form: DNA with 2'F-ANA; sample: in vitro; tested at: 200 nM; added: Cy3 exosite-II aptamer, 400 nM; direction: higher = stronger binding; strand: GGTTGGTGTGGTTGG
# Target: Prothrombin, mature alpha-thrombin (F2, Homo sapiens, UniProt P00734)
# Notes: whole 15-mer aptamer, many near background
Modification,mean fluorescence intensity [a.u.]
2'F-ANA at 2 5 6 8 10 12 15,64.4
2'F-ANA at 2 3 4 5 6 9 10 13 15,41.8
2'F-ANA at 3 4 5 6 7 8 10 11,51.6
2'F-ANA at 1 4 5 6 7 9 10 11 12 14,48.3
2'F-ANA at 3 7 10 11,629
2'F-ANA at 1 3 8 9 10 13 15,130
2'F-ANA at 1 2 4 6 7 10 11,61.1
2'F-ANA at 4 5 6 7 8 9 10 11 14,47.2

# Set 4 — effect on: enzyme activity; mode: inhibitor; tested at: 0.5 µM; reference: control
# Target: SRSF protein kinase 1 (SRPK1, Homo sapiens, UniProt Q96SB4)
# Chain of UniProt Q96SB4 (whole entry, looked up): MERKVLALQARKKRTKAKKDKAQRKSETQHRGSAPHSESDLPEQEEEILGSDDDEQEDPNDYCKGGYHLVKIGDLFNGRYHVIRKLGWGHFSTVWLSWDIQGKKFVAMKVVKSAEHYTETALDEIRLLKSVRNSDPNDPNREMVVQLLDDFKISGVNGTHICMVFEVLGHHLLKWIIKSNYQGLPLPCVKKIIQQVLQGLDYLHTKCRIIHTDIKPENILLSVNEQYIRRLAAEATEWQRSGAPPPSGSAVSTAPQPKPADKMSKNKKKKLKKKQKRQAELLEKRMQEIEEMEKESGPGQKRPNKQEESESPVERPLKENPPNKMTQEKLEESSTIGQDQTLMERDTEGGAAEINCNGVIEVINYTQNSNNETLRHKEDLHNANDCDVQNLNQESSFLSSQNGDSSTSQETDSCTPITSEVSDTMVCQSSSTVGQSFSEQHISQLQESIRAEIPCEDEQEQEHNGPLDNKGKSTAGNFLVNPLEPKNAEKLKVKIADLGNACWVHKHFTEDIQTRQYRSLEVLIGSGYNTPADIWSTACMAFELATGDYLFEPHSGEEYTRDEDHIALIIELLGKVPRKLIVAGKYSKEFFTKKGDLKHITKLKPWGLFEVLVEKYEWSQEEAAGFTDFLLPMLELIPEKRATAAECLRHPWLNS
Compound,remaining activity
OCC(O)CCON=C1C(c2c(O)[nH]c3ccccc23)=Nc2ccccc21 (stereo not drawn),71.3%
CO[C@H]1C[C@@H]2CC[C@@H](C)[C@@](O)(O2)C(=O)C(=O)N2CCCC[C@H]2C(=O)O[C@H]([C@H](C)C[C@@H]2CC[C@@H](O)[C@H](OC)C2)CC(=O)[C@H](C)/C=C(\C)[C@@H](O)[C@@H](OC)C(=O)[C@H](C)C[C@H](C)/C=C/C=C/C=C/1C,108%
Cn1sc(=O)n(Cc2ccccc2)c1=O,89.8%
Nc1[nH]nc2nc3ccccc3nc12,101%
COc1ccc(OC)c2c(=S)c3ccccc3[nH]c12,99.9%
Cc1cccc(-c2[nH]c(C(C)(C)C)nc2-c2ccc3c(c2)OCO3)n1,96.5%
Nc1ccc2ncnc(NCCc3ccc(Oc4ccccc4)cc3)c2c1,99.8%

# A few entries again (set 2):
Strand,E-score
GATACAGC,0.156
GCTGCTAC,-0.236
